Experimental data gathered from unrelated publications.
Every numbered part comes from another study and shows a few of its results, in no order.

Study 1 — technique: aptamer microarray, sandwich; molecule type: DNA with 2'F-ANA; matrix: in vitro; concentration: 200 nM; together with: Cy3 exosite-II aptamer, 400 nM; direction: higher = stronger binding; oligonucleotide: GGTTGGTGTGGTTGG
Target: Prothrombin, mature alpha-thrombin (F2, Homo sapiens, UniProt P00734)
Notes: whole 15-mer aptamer, many near background
| Modification | mean fluorescence intensity |
| --- | --- |
| 2'F-ANA at 1 3 5 6 7 11 13 | 53.4 a.u. |
| 2'F-ANA at 1 3 4 5 9 10 14 | 60.8 a.u. |
| 2'F-ANA at 1 2 5 6 9 10 11 12 14 | 71 a.u. |
| 2'F-ANA at 3 6 11 14 | 509 a.u. |
| 2'F-ANA at 1 2 3 5 6 7 8 9 10 12 14 15 | 102 a.u. |
| 2'F-ANA at 2 4 6 10 14 15 | 56.7 a.u. |
| 2'F-ANA at 2 3 9 12 13 | 922 a.u. |
| 2'F-ANA at 1 3 5 6 7 9 10 12 15 | 85.4 a.u. |
| 2'F-ANA at 1 2 3 5 6 9 10 12 13 15 | 50.8 a.u. |
| 2'F-ANA at 2 3 5 9 10 11 12 13 14 15 | 51.1 a.u. |
| 2'F-ANA at 11 13 14 15 | 176 a.u. |
| 2'F-ANA at 2 3 5 6 10 11 12 15 | 83.1 a.u. |
| 2'F-ANA at 3 5 7 9 10 11 | 63.5 a.u. |
| 2'F-ANA at 3 8 10 13 15 | 479 a.u. |
| 2'F-ANA at 1 4 6 8 10 14 | 45.6 a.u. |
| 2'F-ANA at 1 2 3 5 7 8 11 15 | 57.6 a.u. |
| 2'F-ANA at 1 2 3 4 6 7 8 9 10 12 | 69.6 a.u. |
| 2'F-ANA at 2 3 4 5 6 8 10 13 14 15 | 52.8 a.u. |
| 2'F-ANA at 2 3 9 12 14 15 | 491 a.u. |
| 2'F-ANA at 1 3 5 7 8 9 12 13 14 15 | 47.9 a.u. |
| 2'F-ANA at 1 2 3 4 6 8 9 12 | 365 a.u. |

Study 2 — technique: RNA Bind-n-Seq; molecule type: RNA; matrix: in vitro; concentration: 200 nM; notes: whole 134-nt RNA, ends assumed; together with: 150 mM LiCl; baseline: input library; direction: higher = stronger binding; all molecules: 7-deaza-guanosine replaces G
Target: Ras GTPase-activating protein-binding protein 1, full length (G3BP1, Homo sapiens, UniProt Q13283)
Chain of UniProt Q13283 (whole entry, looked up): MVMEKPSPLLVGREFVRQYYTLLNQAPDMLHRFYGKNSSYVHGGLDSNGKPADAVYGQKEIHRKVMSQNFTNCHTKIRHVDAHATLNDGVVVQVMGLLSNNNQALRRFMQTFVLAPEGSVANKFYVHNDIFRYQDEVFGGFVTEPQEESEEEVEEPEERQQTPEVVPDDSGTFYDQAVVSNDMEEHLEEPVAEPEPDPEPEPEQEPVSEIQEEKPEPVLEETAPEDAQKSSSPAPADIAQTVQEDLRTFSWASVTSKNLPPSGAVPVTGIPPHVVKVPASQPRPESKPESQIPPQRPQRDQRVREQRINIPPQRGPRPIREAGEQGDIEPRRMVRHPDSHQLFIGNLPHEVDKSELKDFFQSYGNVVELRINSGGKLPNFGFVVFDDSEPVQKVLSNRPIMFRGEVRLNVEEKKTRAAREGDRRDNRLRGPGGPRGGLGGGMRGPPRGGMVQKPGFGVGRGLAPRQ
Constant ends, left off below: GGGAGUUCUACAGUCCGACGAUC … UGGAAUUCUCGGGUGUCAAGG
| Oligonucleotide | log2 enrichment |
| --- | --- |
| CAAGUCCUGUGCUACACAUCGUAUGUACCGAAUCGGAAAAAAAGGAAAAAGGUGGAAAGUAUUAUGUUACGCCGUUCGGAUCUGCACUUC | -0.91 |
| AGUCCUGUGCUACACAUCGUAUGUACCGAAUCGGUUUGGAAAAAAAGGUUUUUUUGGAAAGUAUUAUGUUACGCCGUUCGGAUCUGCACU | -2.41 |
| CCUGUGCUACACAUCGUAUGUACCGAAUCGGGUUUUUUUGGGUUUUUUUGGGAAAAAGGGAAAGUAUUAUGUUACGCCGUUCGGAUCUGC | 0.113 |
| CAAGUCCUGUGCUACACAUCGUAUGUACCGAAUCGGGCCCGGGCCCGGGCCCGGGAAAGUAUUAUGUUACGCCGUUCGGAUCUGCACUUC | -1.49 |
| CUCAAGUCCUGUGCUACACAUCGUAUGUACCGAAUCGGGGAGGGGAGGGGAGGAAAGUAUUAUGUUACGCCGUUCGGAUCUGCACUUCCA | 0.114 |
| UUAAAGUAGAGGAACAAAAAGAAGAACAGAAGGAGUUAGAGAAAUCUGAAAAAGAAGAGGAUGAGGAUGAUGAUAGGAAAUCUGAAGACG | -0.77 |
| AGUCCUGUGCUACACAUCGUAUGUACCGAAUCGGGUUUUUGGGAAAAAAAGGGUGGGAAAGUAUUAUGUUACGCCGUUCGGAUCUGCACU | -2.01 |
| UGCUGGUGAGCUGCUGCCUGGCAGGCCACGUCUGCGUGUGGGACGCGCAGACCGGGGAUUGCCUAACGCGCAUUCCGCGCCCAGGGUAGG | -0.918 |
| GCAGGAAGUAAAAACAAAUGGAAAUGCUUCGGAUAGUGGCAGGGGUGGGGGUUGCUAAGGAAAGGGUGGGAUUGGAGUGGGUAAAGAGUU | 0.0663 |
| GAAAUCCACAGGAAAGUGAUGUCACAAAACUUCACCAACUGCCACACCAAGAUUCGCCAUGUUGAUGCUCAUGCCACGCUAAAUGAUGGU | 0.653 |
| CCUGUGCUACACAUCGUAUGUACCGAAUCGGGAAAAAAAGGGAAAAAAAGGGAAAAAGGGAAAGUAUUAUGUUACGCCGUUCGGAUCUGC | -0.281 |

Study 3 — technique: universal PBM; molecule type: double-stranded DNA, one strand shown; matrix: in vitro; concentration: not given; direction: higher = stronger binding
Target: Sal-like protein 4, full length isoform B (SALL4, Homo sapiens, UniProt Q9UJQ4-2, residues 1-616)
Notes: 8-mer, flanks averaged, mean of replicates
| Oligonucleotide | E-score |
| --- | --- |
| ACAGACCT | -0.0288 |
| ACTCCTTG | -0.136 |
| CCTGAACC | -0.0637 |
| AGACTTGA | -0.0104 |
| AGGTTGAG | 0.0124 |
| ATTTCCTG | 0.172 |
| GTCGTATA | 0.214 |
| GAATCTAC | 0.0414 |
| CTGTGCAA | 0.0111 |
| AGGAACCA | -0.124 |
| CTTGTCGA | 0.0922 |
| ATACCCGC | -0.0798 |
| CCTGAGCC | -0.304 |
| AGTCGATA | 0.184 |
| AATGATCA | 0.19 |
| GTAACATA | 0.217 |
| AGTCCTCA | -0.0487 |
| ACGGCGTG | -0.199 |

Study 4 — technique: RNA Bind-n-Seq; molecule type: RNA; matrix: in vitro; concentration: 365 nM; baseline: no-protein control; direction: higher = stronger binding
Target: RNA binding protein fox-1 homolog 2, RRM domain, GST-SBP tag (RBFOX2, Homo sapiens, UniProt O43251-10, residues 100-194)
Notes: natural RNA segment, single round, ends assumed
Constant ends, left off below: GGGAGUUCUACAGUCCGACGAUC … UGGAAUUCUCGGGUGCCAA
Construct (chain): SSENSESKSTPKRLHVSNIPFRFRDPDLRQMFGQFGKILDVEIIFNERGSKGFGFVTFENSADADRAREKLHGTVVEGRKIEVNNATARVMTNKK
| Oligonucleotide | RBNS enrichment (R) |
| --- | --- |
| AAGUGUGACCACUUAAAGCUGCUCGUUAGCAUGGAAGACUUCUCCAUUCUAUCUUUGUAAAACAGACAAGAUAUGCACUUGACAUAGUAGCAAAUUGGUUCUGAAUUAUG | 0.914 |
| CUAGAUGGAUGUUGAUGCACUGGAGGUCUUUUAGCCUGCCCUUGCAUGGCGCCUGCUGGAGGAGGAGAGAGCUCUGCUGGCAUGAGCCACAGUUUCUUGACUGGAGGCCA | 0.906 |
| UUAGUUAUGAAAUGUUCUUAAUAUGACGUGUUCAAUAACUUCACAUAAACUUCCUGUUCUCCAAAACCUCAAAGAGAUAGAGUUAAUGAGUUGUUGUUUUUUUUUAAAUG | 0.352 |
| UCUCCUUCCCACUGUCCUUUCUCCAGGCCCUCAGAUGGCACAUUAGGGUGGGCGUGCUGCGGGUGGGUAUCCCACCUCCAGCCCACAGUGCUCAGUUGUACUUUUUAUUA | 0.372 |
| AUGUCAAACACUAUAUAACAAGCUGUGGUUUUUAAAAGCUAUUGAAUAAUGUUUACAUUGGUCCCUGAGGACAUGUGUGCUCAGACAUUCAAGAGCUAGGAGGCCAGAGA | 0.319 |
| CAGGAUGGCAACAGAUUGGAUGUGCUAUCUCAGUGCCUGCAGGUCUCUCUGCUCGAGGCAGCAGGGGGCGCUUUGCAGUAUAGUUGAGGAAAAUGACCGCUCCUUGACCA | 0.313 |
| GUCAGCUGACUUAAAAUGUUUGUGACUUUCCUGUAAGGGCAGCCAGGGAUAAAAGUAUCCUUUGUUCAAUGAGUAGAAAACUAGAUUAUCUAUUAAUAUUUAAGACCAGG | 0.39 |
| UCAAAUUUAAUAAAGUUAAACAAAUUGAUUUACUUCAGAGCAAAUAUGAUCCUAUUAAAAUAAUAUAGGGUAAAUACCCUACCUCUUAGAAAGGGCAAAAAUGCAAAGAA | 0.556 |
| ACUAGAUAUACGUUUUUAAAUUUAACAUCUGGCUGGACAGUGUUCUAUUAACUCAUUGAAUGUGUUUCCUUUGUCUUGUGUUAAUAAAUAUUGAUGCCUGAUUCUGUUUA | 1.12 |
| AAGAUGAUUUCAGUUCAUCAAAUCAUCAUUAAUGACUUUAUGUAUUAUUUGCACAGGGAGAAUUGAAACUGAGUAUAAUCAAUAAGCUAGAUACGAAAUCAGUUUCUCAA | 0.991 |
| AAAUAAACAAAGGAUUAUGCUUAAUAGUUUUCAUUGAAGUUUAUUAUAACUUAUUUCAGAUGUGUCCUUUUAUUGUACAUUUUGUAUAAUAAAUGUUGAAGUUGAAAACU | 0.568 |
| AGCCUCCCGAAUAGCUGGGACUACAGGCGCACACCACCAUCCCCGGCUAAUUUUUGUAUUUUUUGUAGAGACGGGGUUUUGCCAUGUUGCCAAGGCUGGUUUCAAACUCC | 0.677 |

Study 5 — technique: protein-binding microarray; molecule type: double-stranded DNA, one strand shown; matrix: in vitro; concentration: 2540 nM top; notes: 60-bp whole probe; together with: salmon DNA 0.4 mg/ml; baseline: random background probes; direction: higher = stronger binding; constant ends, left off below: GCCTAGCAC … GTCTTGATTCGCTTGACGCTGCTG
Target: Interferon regulatory factor 3, full length, phosphomimetic (IRF3, Homo sapiens, UniProt Q14653, residues 1-427, S386D/S396D/S398D/S402D/T404D/S405D)
Chain of UniProt Q14653 (whole entry, unmodified, looked up): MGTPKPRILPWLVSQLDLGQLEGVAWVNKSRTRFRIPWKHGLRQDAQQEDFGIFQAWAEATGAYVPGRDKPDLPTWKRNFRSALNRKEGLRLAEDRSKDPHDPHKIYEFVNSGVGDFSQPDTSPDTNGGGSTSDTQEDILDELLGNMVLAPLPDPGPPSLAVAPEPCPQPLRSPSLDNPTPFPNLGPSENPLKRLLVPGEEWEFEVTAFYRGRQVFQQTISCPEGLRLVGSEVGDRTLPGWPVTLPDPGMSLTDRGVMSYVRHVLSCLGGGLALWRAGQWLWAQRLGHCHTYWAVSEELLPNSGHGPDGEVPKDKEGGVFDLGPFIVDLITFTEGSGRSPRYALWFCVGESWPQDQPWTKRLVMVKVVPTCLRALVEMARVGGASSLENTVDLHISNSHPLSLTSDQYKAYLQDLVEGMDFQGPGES
| Oligonucleotide | fitted relative affinity |
| --- | --- |
| TTTCTTTTGCTTGTTCTTAGCGTGCTA | 2.3 z-score |
| TTAGGACTGCTTTTCCTTTAGTGCTAG | 0.903 z-score |
| CAGAGTCTAGCCATTGTGGGTGTGCTA | -0.736 z-score |
| GACGGTTTCGATTTTCGGGACGTGCTA | 7.32 z-score |
| TTAGGTATCCTTTTACTTTAGTGCTAG | 7.65 z-score |
| GACGGTATCGGACTGAGGACGTGCTAG | 1.5 z-score |
| GCTGTCATCGATTTCTTCCCGTGCTAG | 0.0729 z-score |
| GACGGTTTCCTACTGCTAACGTGCTAG | 5.06 z-score |
| GACGGTCTCTGACTGGGGACGTGCTAG | -0.304 z-score |
| TTAGACTTCAGACTGGATTAGTGCTAG | -0.417 z-score |
| CACGGACTGCTACTGCTGACGTGCTAG | -0.653 z-score |
| TTGGGTTTCCTACTGCTTTAGTGCTAG | 3.2 z-score |
| ACTCGTGTTTTTCTCCTATTGTGCTAG | 0.75 z-score |
| TTTTTTTTTACTTCGGGTGAGTGCTAG | 1.71 z-score |
| CACGATTCCAGTTTCGAGACGTGCTAG | 2.95 z-score |
| CTGTTTTTCTCACCACATTTTGTGCTA | 1.48 z-score |
| TGAGTGAAAGGCCCATACATGTGCTAG | -0.681 z-score |
| TCACATCTGGGTATTTTACTGTGCTAG | 0.388 z-score |
| GACGATATCAGTCACGAGACGTGCTAG | 0.135 z-score |
| TTAGAAATCAGTCTCGATTAGTGCTAG | 0.781 z-score |
| TTAGGACTGGATCTCGGTTAGTGCTAG | -0.297 z-score |
| GTCGGTATCGACTATCGGGACGTGCTA | 1.52 z-score |
| GACGGTCTAGGTCTCGGGACGTGCTAG | -0.337 z-score |
| TTAGATCTCAGTATCGATGAGTGCTAG | 0.484 z-score |

For quick reference, copied from above (study 1):
| Modification | mean fluorescence intensity |
| --- | --- |
| 2'F-ANA at 11 13 14 15 | 176 a.u. |
| 2'F-ANA at 2 3 4 5 6 8 10 13 14 15 | 52.8 a.u. |
| 2'F-ANA at 3 6 11 14 | 509 a.u. |
| 2'F-ANA at 2 3 9 12 14 15 | 491 a.u. |
| 2'F-ANA at 1 2 3 4 6 8 9 12 | 365 a.u. |
| 2'F-ANA at 1 2 3 5 6 7 8 9 10 12 14 15 | 102 a.u. |
| 2'F-ANA at 2 4 6 10 14 15 | 56.7 a.u. |
| 2'F-ANA at 1 3 5 7 8 9 12 13 14 15 | 47.9 a.u. |
| 2'F-ANA at 2 3 5 6 10 11 12 15 | 83.1 a.u. |
| 2'F-ANA at 1 3 5 6 7 9 10 12 15 | 85.4 a.u. |
| 2'F-ANA at 1 4 6 8 10 14 | 45.6 a.u. |
| 2'F-ANA at 3 8 10 13 15 | 479 a.u. |
